Experimental data of several laboratories.
Compare with care: the assays were run in different laboratories. ± gives the spread as reported.
AHR: Aryl hydrocarbon receptor (AHR, Homo sapiens, UniProt P35869)
Chain of UniProt P35869 (whole entry, looked up): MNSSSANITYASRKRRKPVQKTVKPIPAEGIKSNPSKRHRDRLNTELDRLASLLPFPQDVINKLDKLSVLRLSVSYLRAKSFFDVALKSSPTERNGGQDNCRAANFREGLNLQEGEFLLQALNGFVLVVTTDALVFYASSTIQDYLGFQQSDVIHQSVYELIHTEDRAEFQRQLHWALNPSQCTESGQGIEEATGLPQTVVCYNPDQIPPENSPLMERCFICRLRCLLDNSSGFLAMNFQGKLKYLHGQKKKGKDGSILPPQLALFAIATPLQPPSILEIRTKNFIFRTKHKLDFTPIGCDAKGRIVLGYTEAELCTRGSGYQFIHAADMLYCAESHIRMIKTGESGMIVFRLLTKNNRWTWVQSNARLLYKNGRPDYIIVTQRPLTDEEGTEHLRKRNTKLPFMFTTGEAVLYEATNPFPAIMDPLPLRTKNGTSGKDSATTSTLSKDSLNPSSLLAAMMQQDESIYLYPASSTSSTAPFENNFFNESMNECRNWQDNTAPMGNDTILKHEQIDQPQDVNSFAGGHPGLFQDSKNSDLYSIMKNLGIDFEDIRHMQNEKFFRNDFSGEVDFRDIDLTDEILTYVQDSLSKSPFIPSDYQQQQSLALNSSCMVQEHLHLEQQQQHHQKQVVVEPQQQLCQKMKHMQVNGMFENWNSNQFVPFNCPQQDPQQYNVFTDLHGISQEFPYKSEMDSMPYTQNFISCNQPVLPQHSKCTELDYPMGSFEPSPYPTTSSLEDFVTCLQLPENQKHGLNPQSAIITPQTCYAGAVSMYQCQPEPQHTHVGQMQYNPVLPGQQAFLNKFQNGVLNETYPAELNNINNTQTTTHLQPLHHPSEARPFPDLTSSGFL
Chain of UniProt P28472 (whole entry, looked up): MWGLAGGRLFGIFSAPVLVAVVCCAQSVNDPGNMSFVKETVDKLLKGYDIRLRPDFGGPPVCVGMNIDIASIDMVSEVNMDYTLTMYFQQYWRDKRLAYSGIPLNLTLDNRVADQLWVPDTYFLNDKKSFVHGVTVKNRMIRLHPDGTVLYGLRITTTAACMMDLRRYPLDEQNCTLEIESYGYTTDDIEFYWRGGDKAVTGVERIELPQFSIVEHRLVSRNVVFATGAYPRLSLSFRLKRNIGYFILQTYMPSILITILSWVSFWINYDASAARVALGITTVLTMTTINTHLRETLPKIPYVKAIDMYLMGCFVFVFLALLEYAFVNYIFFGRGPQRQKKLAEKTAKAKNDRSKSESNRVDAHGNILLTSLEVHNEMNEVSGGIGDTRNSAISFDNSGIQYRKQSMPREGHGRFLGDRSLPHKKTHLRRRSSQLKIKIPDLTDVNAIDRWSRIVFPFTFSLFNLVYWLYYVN
Chain of UniProt P21554 (whole entry, looked up): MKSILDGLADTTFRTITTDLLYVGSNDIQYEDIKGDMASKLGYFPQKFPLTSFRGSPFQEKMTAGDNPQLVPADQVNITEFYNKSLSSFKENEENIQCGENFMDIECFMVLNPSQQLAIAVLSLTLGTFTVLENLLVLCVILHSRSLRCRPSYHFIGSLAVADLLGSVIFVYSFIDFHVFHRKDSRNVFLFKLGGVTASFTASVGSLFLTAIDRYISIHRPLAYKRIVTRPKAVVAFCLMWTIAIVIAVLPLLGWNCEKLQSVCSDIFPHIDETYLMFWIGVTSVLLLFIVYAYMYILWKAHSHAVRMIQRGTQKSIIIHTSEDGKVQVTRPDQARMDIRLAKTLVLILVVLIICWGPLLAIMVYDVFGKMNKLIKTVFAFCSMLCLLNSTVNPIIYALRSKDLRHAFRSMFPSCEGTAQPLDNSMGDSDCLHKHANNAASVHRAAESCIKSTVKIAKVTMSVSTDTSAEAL
Chain of UniProt P18507 (whole entry, looked up): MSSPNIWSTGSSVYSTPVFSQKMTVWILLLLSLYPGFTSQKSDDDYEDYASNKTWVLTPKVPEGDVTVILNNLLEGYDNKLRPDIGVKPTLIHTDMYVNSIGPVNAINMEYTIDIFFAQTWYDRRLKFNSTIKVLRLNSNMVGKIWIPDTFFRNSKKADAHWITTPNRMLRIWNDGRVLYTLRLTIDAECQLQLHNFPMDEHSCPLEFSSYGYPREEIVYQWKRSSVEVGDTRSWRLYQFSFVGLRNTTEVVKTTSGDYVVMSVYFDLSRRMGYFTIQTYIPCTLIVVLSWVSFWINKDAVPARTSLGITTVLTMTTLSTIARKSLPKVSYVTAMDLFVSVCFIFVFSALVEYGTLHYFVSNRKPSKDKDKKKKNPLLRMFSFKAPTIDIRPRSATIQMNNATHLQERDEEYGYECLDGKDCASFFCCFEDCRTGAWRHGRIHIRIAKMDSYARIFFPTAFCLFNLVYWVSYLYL
Chain of UniProt P31644 (whole entry, looked up): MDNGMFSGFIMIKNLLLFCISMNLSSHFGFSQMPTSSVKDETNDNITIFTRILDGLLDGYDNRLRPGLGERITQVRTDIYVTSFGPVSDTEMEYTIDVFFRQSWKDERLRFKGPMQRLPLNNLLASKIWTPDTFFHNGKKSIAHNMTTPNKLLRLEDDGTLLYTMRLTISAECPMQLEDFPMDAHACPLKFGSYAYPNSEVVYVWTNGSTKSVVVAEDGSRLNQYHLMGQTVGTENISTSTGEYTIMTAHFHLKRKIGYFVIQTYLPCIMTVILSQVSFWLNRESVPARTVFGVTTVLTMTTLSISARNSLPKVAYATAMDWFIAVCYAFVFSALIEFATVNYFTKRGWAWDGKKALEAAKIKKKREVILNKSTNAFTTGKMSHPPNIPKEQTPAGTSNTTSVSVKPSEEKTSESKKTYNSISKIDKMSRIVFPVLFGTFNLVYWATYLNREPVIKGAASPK
Chain of UniProt Q23497 (whole entry, looked up): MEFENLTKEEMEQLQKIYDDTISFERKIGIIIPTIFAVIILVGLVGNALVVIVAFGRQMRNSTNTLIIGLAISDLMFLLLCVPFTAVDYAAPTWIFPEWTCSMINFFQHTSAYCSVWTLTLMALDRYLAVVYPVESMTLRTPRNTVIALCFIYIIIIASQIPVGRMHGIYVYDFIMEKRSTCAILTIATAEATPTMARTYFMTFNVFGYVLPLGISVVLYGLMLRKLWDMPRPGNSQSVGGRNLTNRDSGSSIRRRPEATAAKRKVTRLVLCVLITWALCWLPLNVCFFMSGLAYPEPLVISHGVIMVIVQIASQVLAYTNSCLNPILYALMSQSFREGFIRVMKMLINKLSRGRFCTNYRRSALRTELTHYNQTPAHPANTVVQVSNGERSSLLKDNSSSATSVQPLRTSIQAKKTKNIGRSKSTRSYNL
Chain of UniProt P62508 (whole entry, looked up): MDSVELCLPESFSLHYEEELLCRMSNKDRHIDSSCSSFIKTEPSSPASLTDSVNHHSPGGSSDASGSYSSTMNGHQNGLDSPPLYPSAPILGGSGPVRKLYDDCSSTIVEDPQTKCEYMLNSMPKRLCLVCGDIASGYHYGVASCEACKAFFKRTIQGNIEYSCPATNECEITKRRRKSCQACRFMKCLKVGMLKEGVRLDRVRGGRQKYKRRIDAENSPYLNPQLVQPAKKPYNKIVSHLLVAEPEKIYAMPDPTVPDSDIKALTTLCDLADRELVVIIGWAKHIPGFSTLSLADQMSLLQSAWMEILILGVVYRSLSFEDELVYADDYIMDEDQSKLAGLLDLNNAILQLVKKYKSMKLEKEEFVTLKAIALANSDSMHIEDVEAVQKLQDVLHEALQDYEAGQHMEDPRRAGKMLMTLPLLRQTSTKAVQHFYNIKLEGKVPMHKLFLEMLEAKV
Chain of UniProt P31645 (whole entry, looked up): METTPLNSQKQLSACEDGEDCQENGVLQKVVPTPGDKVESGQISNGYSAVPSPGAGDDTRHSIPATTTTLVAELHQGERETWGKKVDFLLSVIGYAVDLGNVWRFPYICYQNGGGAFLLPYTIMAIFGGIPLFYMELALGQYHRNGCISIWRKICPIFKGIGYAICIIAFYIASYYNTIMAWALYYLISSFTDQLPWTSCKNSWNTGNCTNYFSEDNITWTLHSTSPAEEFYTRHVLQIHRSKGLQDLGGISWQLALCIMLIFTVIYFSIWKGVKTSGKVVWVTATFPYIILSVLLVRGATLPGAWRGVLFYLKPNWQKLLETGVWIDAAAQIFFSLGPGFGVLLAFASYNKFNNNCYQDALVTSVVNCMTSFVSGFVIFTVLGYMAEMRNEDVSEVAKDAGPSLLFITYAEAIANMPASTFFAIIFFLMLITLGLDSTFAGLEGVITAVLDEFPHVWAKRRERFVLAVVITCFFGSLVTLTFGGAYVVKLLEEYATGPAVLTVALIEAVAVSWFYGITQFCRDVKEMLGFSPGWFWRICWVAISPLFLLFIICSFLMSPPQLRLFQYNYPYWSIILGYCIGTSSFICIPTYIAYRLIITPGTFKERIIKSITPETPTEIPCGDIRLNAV

SMILES	target	test	system	conditions	how to read	EC50
CSCC[C@H](NC(=O)[C@H](CCCNC(=N)N)NC(=O)[C@H](Cc1ccccc1)NC(=O)[C@H](C)NC(=O)[C@H](CC(N)=O)NC(=O)[C@@H]1CCCN1C(=O)[C@H](CC(=O)O)NC(=O)[C@@H](N)CCSC)C(=O)N[C@@H](CO)C(=O)N[C@@H](Cc1ccccc1)C(N)=O	Galanin-like G-protein coupled receptor npr-9 (npr-9, Caenorhabditis elegans, UniProt Q23497)	calcium mobilization, agonist, aequorin luminescence	CHO cells			618 nM
C[C@@H]1[C@@H](c2ccc(Cl)cc2)SC(=O)N1C(=O)NC1CCCCC1	AHR	agonist				> 100000 nM
NCc1cc(=O)[nH]o1	GABA-A receptor; alpha-5/beta-3/gamma-2 (Homo sapiens, UniProt P18507+P28472+P31644)	membrane potential, agonist, QP-DHM fluorescence	HEK293 expressing GABAA α5β3γ2			650 nM
CNC(C)Cc1ccc2nsnc2c1 (centres unmarked)	SLC6A4 (Homo sapiens, UniProt P31645)	transporter current, whole-cell patch clamp	HEK293	holding -60 mV		440 nM
O=C(O)c1ccccc1Nc1cccc(C(F)(F)F)c1	BK channel alpha subunit (Cavia porcellus, UniProt A0A286XP95)	delayed rectifier K+ current, activator	dispersed vascular smooth muscle cells, guinea pig, MA arteriole	at +40 mV		293000 nM
Cc1ccc2c(ccc3ccccc32)c1	AHR	reporter gene, agonist, yeast LacZ reporter	Saccharomyces cerevisiae	18 h, 30 °C	relative to: 50% of 100 µM phenanthrene activity	4620 nM
CC[C@H](C)[C@H](NC(=O)[C@H](CO)NC(=O)[C@H](C)NC(=O)[C@H](Cc1ccc(OP(=O)(O)O)cc1)NC(=O)[C@H](CCC(=O)O)NC(=O)[C@@H](NC(=O)[C@H](Cc1c[nH]cn1)NC(=O)[C@H](CC(N)=O)NC(=O)[C@H](CC(N)=O)NC(=O)[C@@H]1CCCN1C(=O)[C@H](CCC(=O)O)NC(=O)[C@H](C)NC(=O)[C@H](C)NC(=O)[C@H](CCC(N)=O)NC(=O)[C@@H]1CCCN1C(=O)[C@H](C)NC(=O)[C@@H]1CCCN1C(=O)[C@H](CCCCN)NC(=O)[C@H](CCCCN)NC(=O)CNC(=O)[C@H](CCCCN)NC(=O)[C@@H]1CCCN1C(=O)[C@H](CC(C)C)NC(=O)[C@H](CC(N)=O)NC(=O)[C@H](CC(C)C)NC(=O)[C@H](CC(=O)O)NC(=O)[C@H](C)NC(=O)[C@H](Cc1ccc(OP(=O)(O)O)cc1)NC(=O)[C@@H](NC(=O)[C@@H](NC(=O)[C@@H](N)CC(=O)O)[C@@H](C)CC)[C@@H](C)O)[C@@H](C)O)C(=O)N[C@@H](CCC(N)=O)C(=O)N[C@H](C(=O)N[C@@H](CO)C(=O)O)[C@@H](C)O	PTPN11 (Homo sapiens, UniProt Q06124, R111D)	enzyme activity, activator		pH 7.0, 0.2% DMSO, with: DiFMUP 100 µM, phosphopeptide		630 ± 10 nM
C=CCCCn1c(O)c(N=NC(=O)c2ccccc2)c2ccccc21	CNR1 (Homo sapiens, UniProt P21554)	agonist				102 nM
O=C(Nc1ccccc1F)c1ccc(-c2cccc(B(O)O)c2)s1	ESRRG (Homo sapiens, UniProt P62508)					~450 nM
CCCC(NCCc1cc(OC)c(C#N)cc1OC)c1ccccc1O (centres unmarked)	HTR2A (Homo sapiens, UniProt P28223)	agonist				350 nM
c1ccc2c(c1)-c1cccc3c1c-2cc1ccccc13	Aryl hydrocarbon receptor (Danio rerio, UniProt Q9YGV3)	agonist	ZF4 reporter cells	22 to 24 h		14.9 nM

A few entries again:
SMILES	target	test	system	conditions	how to read	EC50
Cc1ccc2c(ccc3ccccc32)c1	AHR	reporter gene, agonist, yeast LacZ reporter	Saccharomyces cerevisiae	18 h, 30 °C	relative to: 50% of 100 µM phenanthrene activity	4620 nM
NCc1cc(=O)[nH]o1	GABA-A receptor; alpha-5/beta-3/gamma-2 (Homo sapiens, UniProt P18507+P28472+P31644)	membrane potential, agonist, QP-DHM fluorescence	HEK293 expressing GABAA α5β3γ2			650 nM
